Assay results gathered from unrelated publications.
Each line is one published result; not all experiments were run side by side. ± gives the spread as reported.
Chain of UniProt P21554 (whole entry, looked up): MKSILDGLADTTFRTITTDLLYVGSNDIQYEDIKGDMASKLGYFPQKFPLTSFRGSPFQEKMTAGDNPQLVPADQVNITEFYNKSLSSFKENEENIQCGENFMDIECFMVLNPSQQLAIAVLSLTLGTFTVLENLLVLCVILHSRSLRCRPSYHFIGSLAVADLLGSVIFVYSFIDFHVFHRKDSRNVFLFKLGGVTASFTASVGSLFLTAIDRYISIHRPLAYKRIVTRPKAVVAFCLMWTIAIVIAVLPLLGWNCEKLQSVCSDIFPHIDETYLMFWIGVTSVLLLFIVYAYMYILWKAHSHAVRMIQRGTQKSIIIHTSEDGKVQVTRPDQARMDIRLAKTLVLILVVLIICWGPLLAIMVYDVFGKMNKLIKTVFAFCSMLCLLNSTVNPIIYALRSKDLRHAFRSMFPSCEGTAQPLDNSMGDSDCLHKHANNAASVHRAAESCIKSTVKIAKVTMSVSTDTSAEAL
Chain of UniProt P07948 (whole entry, looked up): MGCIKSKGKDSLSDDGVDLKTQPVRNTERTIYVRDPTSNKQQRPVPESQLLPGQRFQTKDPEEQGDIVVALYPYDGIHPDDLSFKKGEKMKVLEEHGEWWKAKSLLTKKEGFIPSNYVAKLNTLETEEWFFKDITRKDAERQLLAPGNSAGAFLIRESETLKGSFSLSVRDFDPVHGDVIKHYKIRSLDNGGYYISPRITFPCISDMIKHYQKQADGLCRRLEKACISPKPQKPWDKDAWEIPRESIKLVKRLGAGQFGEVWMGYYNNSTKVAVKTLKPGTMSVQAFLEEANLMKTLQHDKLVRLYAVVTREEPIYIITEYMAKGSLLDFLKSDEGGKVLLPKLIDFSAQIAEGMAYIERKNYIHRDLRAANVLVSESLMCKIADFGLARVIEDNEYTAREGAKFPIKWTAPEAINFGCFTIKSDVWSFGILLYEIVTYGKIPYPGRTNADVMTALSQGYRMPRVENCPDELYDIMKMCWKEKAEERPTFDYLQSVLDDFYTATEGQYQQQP
Chain of UniProt O15393 (whole entry, looked up): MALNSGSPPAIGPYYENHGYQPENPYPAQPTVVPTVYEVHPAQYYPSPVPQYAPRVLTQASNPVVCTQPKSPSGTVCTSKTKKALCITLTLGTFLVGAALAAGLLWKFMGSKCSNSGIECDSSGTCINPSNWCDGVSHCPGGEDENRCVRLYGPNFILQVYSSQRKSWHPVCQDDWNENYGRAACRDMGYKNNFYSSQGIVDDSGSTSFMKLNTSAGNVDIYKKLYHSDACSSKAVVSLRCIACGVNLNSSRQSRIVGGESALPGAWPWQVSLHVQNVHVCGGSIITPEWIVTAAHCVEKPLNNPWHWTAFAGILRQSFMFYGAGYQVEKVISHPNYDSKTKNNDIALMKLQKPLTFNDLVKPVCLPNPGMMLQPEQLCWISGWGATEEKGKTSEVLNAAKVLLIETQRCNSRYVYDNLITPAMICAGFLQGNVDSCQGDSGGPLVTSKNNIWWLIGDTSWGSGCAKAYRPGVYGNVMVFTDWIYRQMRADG
Chain of UniProt P34972 (whole entry, looked up): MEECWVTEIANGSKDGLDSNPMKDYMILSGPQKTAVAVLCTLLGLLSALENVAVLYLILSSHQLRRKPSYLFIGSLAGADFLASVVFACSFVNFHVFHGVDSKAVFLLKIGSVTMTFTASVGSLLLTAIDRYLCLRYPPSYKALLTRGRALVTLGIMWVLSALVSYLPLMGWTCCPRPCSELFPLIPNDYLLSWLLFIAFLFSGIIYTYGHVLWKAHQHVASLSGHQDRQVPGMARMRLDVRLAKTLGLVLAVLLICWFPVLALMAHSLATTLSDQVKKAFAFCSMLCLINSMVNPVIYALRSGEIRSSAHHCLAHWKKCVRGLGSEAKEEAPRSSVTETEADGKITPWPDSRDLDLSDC
Chain of UniProt P23739 (whole entry, looked up): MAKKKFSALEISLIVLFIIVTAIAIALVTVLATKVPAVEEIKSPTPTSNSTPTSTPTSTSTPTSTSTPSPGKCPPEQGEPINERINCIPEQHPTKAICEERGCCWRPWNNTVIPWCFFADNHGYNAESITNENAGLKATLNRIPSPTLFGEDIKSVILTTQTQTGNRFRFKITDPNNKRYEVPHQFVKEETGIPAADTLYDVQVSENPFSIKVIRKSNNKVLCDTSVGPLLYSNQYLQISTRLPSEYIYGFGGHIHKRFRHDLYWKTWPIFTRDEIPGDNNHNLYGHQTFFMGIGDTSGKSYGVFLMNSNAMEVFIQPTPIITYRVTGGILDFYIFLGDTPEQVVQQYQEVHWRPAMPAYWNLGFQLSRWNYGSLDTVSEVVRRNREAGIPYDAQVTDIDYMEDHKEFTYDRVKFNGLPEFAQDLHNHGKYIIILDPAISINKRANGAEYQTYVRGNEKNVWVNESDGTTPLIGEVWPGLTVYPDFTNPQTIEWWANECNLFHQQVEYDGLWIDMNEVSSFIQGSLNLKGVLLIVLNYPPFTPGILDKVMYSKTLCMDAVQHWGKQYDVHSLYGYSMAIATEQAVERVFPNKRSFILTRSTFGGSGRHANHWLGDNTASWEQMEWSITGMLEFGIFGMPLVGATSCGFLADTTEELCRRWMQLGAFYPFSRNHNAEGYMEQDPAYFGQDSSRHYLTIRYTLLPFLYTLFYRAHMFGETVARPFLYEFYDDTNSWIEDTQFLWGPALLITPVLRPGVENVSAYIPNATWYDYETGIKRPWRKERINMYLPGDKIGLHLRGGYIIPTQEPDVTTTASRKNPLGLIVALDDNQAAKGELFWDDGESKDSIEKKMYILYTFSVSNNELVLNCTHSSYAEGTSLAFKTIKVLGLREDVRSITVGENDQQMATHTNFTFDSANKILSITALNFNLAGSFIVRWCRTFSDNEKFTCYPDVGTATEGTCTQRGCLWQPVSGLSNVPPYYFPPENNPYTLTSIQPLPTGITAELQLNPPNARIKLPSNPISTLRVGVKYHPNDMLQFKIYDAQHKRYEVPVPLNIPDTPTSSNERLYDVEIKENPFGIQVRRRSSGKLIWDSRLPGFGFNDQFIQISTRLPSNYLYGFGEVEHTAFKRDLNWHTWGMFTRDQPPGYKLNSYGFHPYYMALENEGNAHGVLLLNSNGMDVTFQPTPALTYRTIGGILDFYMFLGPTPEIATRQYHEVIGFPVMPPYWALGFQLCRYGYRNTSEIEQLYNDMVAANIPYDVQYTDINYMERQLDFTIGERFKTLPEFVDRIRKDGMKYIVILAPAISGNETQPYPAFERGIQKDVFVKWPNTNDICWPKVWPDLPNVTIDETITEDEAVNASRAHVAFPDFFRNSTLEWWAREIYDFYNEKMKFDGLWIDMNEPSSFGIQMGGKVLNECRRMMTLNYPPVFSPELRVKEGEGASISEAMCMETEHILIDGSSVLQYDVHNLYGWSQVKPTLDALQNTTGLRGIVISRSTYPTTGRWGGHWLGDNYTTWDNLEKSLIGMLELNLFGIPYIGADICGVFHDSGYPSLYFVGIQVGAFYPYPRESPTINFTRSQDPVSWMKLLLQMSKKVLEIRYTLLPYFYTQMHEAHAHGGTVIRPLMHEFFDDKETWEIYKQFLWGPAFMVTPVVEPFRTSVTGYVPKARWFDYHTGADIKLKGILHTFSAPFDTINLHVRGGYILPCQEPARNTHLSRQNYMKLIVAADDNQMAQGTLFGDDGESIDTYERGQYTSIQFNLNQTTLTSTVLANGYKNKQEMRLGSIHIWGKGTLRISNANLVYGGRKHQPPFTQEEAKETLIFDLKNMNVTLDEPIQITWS
Chain of UniProt P31645 (whole entry, looked up): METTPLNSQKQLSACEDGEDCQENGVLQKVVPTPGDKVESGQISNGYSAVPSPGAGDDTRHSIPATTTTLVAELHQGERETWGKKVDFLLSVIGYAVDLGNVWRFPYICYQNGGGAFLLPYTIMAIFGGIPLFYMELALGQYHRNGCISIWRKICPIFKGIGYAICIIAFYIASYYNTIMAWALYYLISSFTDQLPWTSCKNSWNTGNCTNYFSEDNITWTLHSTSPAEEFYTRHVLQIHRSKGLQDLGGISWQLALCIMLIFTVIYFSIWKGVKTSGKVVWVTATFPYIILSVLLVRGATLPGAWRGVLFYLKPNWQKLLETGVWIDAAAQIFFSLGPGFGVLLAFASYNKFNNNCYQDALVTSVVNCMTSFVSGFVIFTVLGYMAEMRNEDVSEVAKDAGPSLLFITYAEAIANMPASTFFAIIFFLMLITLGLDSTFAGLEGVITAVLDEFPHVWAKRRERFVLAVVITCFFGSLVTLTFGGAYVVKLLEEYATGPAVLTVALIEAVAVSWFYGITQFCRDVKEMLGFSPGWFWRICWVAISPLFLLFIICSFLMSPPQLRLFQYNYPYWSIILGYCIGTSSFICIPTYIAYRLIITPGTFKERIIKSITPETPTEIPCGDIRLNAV
Chain of UniProt P35367 (whole entry, looked up): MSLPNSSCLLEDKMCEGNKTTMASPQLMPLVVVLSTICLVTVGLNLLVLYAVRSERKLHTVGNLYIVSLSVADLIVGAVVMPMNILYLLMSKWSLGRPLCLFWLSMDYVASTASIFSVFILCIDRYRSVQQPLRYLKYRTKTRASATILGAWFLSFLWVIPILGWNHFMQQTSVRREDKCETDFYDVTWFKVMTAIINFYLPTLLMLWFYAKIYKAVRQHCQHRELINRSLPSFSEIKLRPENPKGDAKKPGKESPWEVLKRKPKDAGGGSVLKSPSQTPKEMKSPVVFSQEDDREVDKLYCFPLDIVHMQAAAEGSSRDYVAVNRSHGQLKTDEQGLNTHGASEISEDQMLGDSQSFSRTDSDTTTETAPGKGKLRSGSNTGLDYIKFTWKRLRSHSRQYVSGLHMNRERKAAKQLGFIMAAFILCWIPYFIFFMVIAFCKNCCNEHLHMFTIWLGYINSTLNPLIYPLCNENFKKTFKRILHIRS

Compound	target	test	test system	conditions	quantity	result
CCCc1cc(O)c2c(c1)OC(C)(C)c1ccc(C)cc1-2	Sucrase-isomaltase, intestinal (Si, Rattus norvegicus, UniProt P23739)	enzyme activity, inhibitor, absorbance	–	–	IC50	470000 nM
CC(C)CC(C(=O)N1CC2(CC1C#N)C(=O)Nc1ccccc12)N(C)C(=O)c1cc2c(F)cc(F)c(F)c2[nH]1 (centres unmarked)	Transmembrane protease serine 2 (TMPRSS2, Homo sapiens, UniProt O15393)	enzyme activity, inhibitor	–	–	IC50	> 100000 nM
COc1cc(C)[nH]c(=O)c1CNC(=O)c1c(C)n([C@H](C)[C@H]2CC[C@H](N3CC(OC)C3)CC2)c2ccccc12	Histone-lysine N-methyltransferase EZH2, PRC2 pentameric complex (EZH2, Homo sapiens, UniProt Q15910)	enzyme activity, inhibitor	–	together with: H3K27me3 activating peptide	IC50	0.28 nM
CC(C)n1nc(-c2ccc3cc(OCc4cccc(Cl)c4)ccc3c2)c2c(N)ncnc21	Tyrosine-protein kinase Lyn (LYN, Homo sapiens, UniProt P07948)	enzyme activity, inhibitor	–	–	Ki	3800 nM
COc1ccccc1C(C[N+](=O)[O-])c1c(-c2ccccc2)[nH]c2ccccc12 (centres unmarked)	Cannabinoid receptor 1 (CNR1, Homo sapiens, UniProt P21554)	G protein activation, agonist, BRET	–	–	EC50	190 nM
OC(CN1CCN(c2nsc3ccccc23)CC1)c1cccs1 (centres unmarked)	D(3) dopamine receptor (DRD3, Homo sapiens, UniProt P35462)	β-arrestin recruitment, antagonist	–	–	Ki	300 nM
CCN(CC)C(=O)[C@@H]1C=C2c3cccc4c3c(cn4C(=O)c3ccco3)C[C@H]2N(C)C1	Histamine H1 receptor (HRH1, Homo sapiens, UniProt P35367)	ligand displacement, radioligand	–	–	Ki	> 10000 nM
CCC[C@@H](C(=O)c1ccccc1)N1CCCC1	Sodium-dependent serotonin transporter (SLC6A4, Homo sapiens, UniProt P31645)	transporter uptake, inhibitor, radiometric	–	–	Ki	386000 nM
CCCCCn1cc(C(=O)c2cccc3ccccc23)c2ccccc21	Cannabinoid receptor 2 (CNR2, Homo sapiens, UniProt P34972)	cAMP, agonist	–	–	EC50	1.62 nM
Cc1ccc2c(C(C[N+](=O)[O-])c3cccs3)c(-c3ccccc3)[nH]c2c1 (centres unmarked)	Cannabinoid receptor 1, with Gi1 (CNR1, Homo sapiens, UniProt P21554)	Gi1 dissociation, agonist, BRET	HEK293	–	EC50	130 ± 10 nM
CCN(CC)C(=O)c1ccc(C(c2cccc(O)c2)N2CC(C)N(Cc3ccccc3)CC2C)cc1 (centres unmarked)	Delta-type opioid receptor (OPRD1, Homo sapiens, UniProt P41143, W284A)	–	–	–	Ki	1.12 ± 0.59 nM

Some of these lines once more:
Compound	target	test	test system	conditions	quantity	result
CC(C)n1nc(-c2ccc3cc(OCc4cccc(Cl)c4)ccc3c2)c2c(N)ncnc21	Tyrosine-protein kinase Lyn (LYN, Homo sapiens, UniProt P07948)	enzyme activity, inhibitor	–	–	Ki	3800 nM
COc1cc(C)[nH]c(=O)c1CNC(=O)c1c(C)n([C@H](C)[C@H]2CC[C@H](N3CC(OC)C3)CC2)c2ccccc12	Histone-lysine N-methyltransferase EZH2, PRC2 pentameric complex (EZH2, Homo sapiens, UniProt Q15910)	enzyme activity, inhibitor	–	together with: H3K27me3 activating peptide	IC50	0.28 nM
